Experimental data gathered from unrelated publications.
Protocols differ between the studies behind these lines.
Organism: HIV-1

CC[C@H](C)CN(C[C@@H](O)[C@H](Cc1ccccc1)NC(=O)[C@@H](NC(C)=O)[C@@H](C)CC)S(=O)(=O)c1ccc2ncsc2c1  EC50 (viral replication, Monogram susceptibility; clade C patient isolate): 0.0035 µM
COc1cccc(C=NNC(=O)CN2c3c(n[nH]c3-c3cccc(Cl)c3)-c3ccccc3S2(=O)=O)c1  EC50 (viral replication; PBMC): > 10 µM
Cc1c2c(nn1CC(=O)NCc1ccccc1Br)-c1ccccc1S(=O)(=O)N2C  EC50 (viral replication; PBMC): < 20 µM
CC(=NNC(=O)CN1c2c(-c3ccccc3)n[nH]c2-c2ccccc2S1(=O)=O)c1ccc([N+](=O)[O-])s1  EC50 (viral replication; PBMC): > 100 µM
Nc1c(C(=O)NCc2ccc(F)cc2F)c(=O)n(O)c2ncc(CCC(=O)NCCO)cc12  EC50 (viral infectivity, single-round infection; HOS, integrase wild type): ≥ 0.2 µM
N=C(N)NCCC[C@H](NC(=O)[C@H](CCCNC(=N)N)NC(=O)[C@H](CCCNC(=N)N)NC(=O)[C@H](CCCNC(=N)N)NC(=O)[C@H](CCCNC(=N)N)NC(=O)[C@H](CCCNC(=N)N)NC(=O)[C@H](CCCNC(=N)N)NC(=O)CCCCCCCCCCCCC(=O)OC[C@@H]1O[C@H](n2cc(F)c(N)nc2=O)CS1)C(=O)O  EC50 (viral replication; single-round infection, X4 and R5 virus): 1.5 to 3 µM
O=C(CN1c2c(n[nH]c2-c2cccc(Cl)c2)-c2ccccc2S1(=O)=O)NN=Cc1ccc(Cl)cc1  EC50 (viral replication; PBMC): < 5 µM
COc1ccccc1CNC(=O)Cn1nc2c(c1C)N(C)S(=O)(=O)c1ccccc1-2  EC50 (viral replication; PBMC): < 20 µM
COc1cc(C=NNC(=O)CN2c3c(n[nH]c3-c3cccc(Cl)c3)-c3ccccc3S2(=O)=O)cc(OC)c1OC  EC50 (viral replication; PBMC): 5.8 µM
CC(=NNC(=O)CN1c2c(-c3ccccc3)n[nH]c2-c2ccccc2S1(=O)=O)c1sccc1Cl  EC50 (viral replication; PBMC): 17.4 µM

Some of these lines once more:
CC[C@H](C)CN(C[C@@H](O)[C@H](Cc1ccccc1)NC(=O)[C@@H](NC(C)=O)[C@@H](C)CC)S(=O)(=O)c1ccc2ncsc2c1  EC50 (viral replication, Monogram susceptibility; clade C patient isolate): 0.0035 µM
